Assay results collected from several papers.
A part holds a random share of what one study measured. Changes are numbered by the printed parent chain.

Study 1
Target: CCND3, cyclin fold, Cln2 fusion (human)
Technique: yeast growth competition, sequencing
Medium: yeast
Notes: weak parent motif
Relative to: not given
Reading: higher = stronger binding
Starting sequence: E2F1 docking peptide (human); PPVKRRLDFETDH; partner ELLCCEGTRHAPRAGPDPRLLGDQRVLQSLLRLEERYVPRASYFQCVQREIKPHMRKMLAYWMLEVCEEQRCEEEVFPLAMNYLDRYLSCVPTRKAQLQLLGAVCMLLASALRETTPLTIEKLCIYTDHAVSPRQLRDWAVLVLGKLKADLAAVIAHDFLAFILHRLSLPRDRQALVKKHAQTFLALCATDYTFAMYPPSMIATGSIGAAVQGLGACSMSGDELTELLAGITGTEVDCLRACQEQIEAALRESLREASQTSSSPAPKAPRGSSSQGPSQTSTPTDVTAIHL
Change	normalised enrichment score
P2Q	0.0267
R6D	-0.156
D12Y	0.369
R5H	-0.117
D12W	0.343

Study 2
Target: Histone acetyltransferase KAT6A, winged helix 1, GST fusion (KAT6A, Homo sapiens, UniProt Q92794, residues 1-85)
Technique: protein binding microarray
Molecule type: double-stranded DNA, one strand shown
Medium: in vitro
Concentration: not given
Notes: 8-mer, flanks averaged, mean of 2 arrays, mostly near background
Relative to: not given
Reading: higher = stronger binding
Target sequence (chain): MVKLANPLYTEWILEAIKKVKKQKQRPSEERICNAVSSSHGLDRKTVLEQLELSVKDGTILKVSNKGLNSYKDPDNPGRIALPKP
Strand	E-score
ATGCCGTA	0.386
CCTCGACA	-0.168
AACTGTAG	-0.174
CAGAGTCG	-0.0971
CGAGGTGA	-0.0534

Study 3
Target: Interferon regulatory factor 7, full length, phosphomimetic (IRF7, Homo sapiens, UniProt Q92985, residues 1-503, S471D/S472D/S475D/S476D/S477D/S483D/S484D/S487D)
Chain of UniProt Q92985 (whole entry, unmodified, looked up): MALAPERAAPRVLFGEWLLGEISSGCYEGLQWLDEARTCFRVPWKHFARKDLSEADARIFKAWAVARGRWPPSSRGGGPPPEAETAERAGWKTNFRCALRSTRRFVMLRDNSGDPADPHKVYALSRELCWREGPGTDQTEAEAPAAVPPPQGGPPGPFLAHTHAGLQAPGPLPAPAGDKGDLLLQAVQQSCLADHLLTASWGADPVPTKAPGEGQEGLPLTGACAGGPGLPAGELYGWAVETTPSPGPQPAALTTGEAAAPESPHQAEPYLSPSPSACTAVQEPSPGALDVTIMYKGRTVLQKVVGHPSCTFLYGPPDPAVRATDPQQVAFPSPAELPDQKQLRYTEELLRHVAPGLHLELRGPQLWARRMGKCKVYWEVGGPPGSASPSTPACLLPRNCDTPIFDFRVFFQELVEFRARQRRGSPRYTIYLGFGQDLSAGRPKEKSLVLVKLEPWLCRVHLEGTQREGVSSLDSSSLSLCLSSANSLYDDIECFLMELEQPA
Technique: protein-binding microarray
Molecule type: double-stranded DNA, one strand shown
Medium: in vitro
Concentration: 2200 nM top
Notes: 60-bp whole probe
Together with: salmon DNA 0.4 mg/ml
Relative to: random background probes
Reading: higher = stronger binding
Constant ends, left off below: GCCTAGCAC … GTCTTGATTCGCTTGACGCTGCTG
Strand	fitted relative affinity
TTAGAAGTGAGACTGGATTAGTGCTAG	-0.865 z-score
GACGGTTTCGGGTATCGGGGCGTGCTA	6.14 z-score
TCAGAGATTTTTCTCAAACTGTGCTAG	-0.627 z-score
AGTGTTTCCCCTATTTAAGAGTGCTAG	1.71 z-score
TTAGGTTCCGACACTGGGTTAGTGCTA	0.23 z-score
GCCGGTATCGGGTTTCGGGACGTGCTA	1.62 z-score
TTGGGTTTCGACTTTCGGTTAGTGCTA	9.68 z-score
GACGATCTCAGTATCGGGACGTGCTAG	0.0586 z-score

Mixed results
Molecule	target	assay	system	conditions	how to read	measurement	value
PhoQ, residues 284 288 289 292 302 303 SIHLQL	PhoP, residues 12 14 15 18 19 AQALL (Escherichia coli, UniProt P23836)	Sort-seq, item: YFP reporter	E. coli	PhoQ-PhoP variant library, together with: 10 µM Mg2+	relative to: high Mg2+ state, higher = stronger signaling	fold induction	10.3

Some of these lines once more (study 1):
Change	normalised enrichment score
R6D	-0.156
D12Y	0.369
